Measured values gathered from unrelated publications.
Lines come from different studies, so protocols differ. ± gives the spread as reported.
U2AF2: U2AF2 148-342 (Homo sapiens, UniProt P26368)
Chain of UniProt P26368 (whole entry, looked up): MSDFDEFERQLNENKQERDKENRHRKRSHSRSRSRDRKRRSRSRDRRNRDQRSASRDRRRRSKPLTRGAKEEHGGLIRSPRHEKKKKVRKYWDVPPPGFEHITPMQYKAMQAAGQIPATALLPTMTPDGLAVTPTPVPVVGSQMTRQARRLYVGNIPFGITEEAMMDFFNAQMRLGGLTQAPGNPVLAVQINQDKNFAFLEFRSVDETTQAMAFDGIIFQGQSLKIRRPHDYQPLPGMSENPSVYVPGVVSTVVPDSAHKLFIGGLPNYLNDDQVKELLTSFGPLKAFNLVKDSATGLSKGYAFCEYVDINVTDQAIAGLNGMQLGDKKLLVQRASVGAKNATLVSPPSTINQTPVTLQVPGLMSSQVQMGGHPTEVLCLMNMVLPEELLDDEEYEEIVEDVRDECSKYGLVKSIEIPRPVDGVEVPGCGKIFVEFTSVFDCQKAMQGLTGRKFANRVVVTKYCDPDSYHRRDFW
B1: S100A1 (Homo sapiens, UniProt P23297); chain MGSELETAMETLINVFHAHSGKEGDKYKLSKKELKELLQTELSGFLDAQKDVDAVDKVMKELDENGDGEVDFQEYVVLVAALTVACNNFFWENS
B2: racE T25N/S192D/E173R (Dictyostelium discoideum, UniProt Q23862); sequence looked up; chain MSEDQGSGATRVKLVVVGDGAVGKNCLLICYAQNDFPVDYVPTVFENYTATRKRGNEDIKVHLWDTAGQEEYDRLRPLSYPGADVVLLCFSTISQSSYEAIRDKWAPEVNHYIPDVPSILVGTKIDLREQQHPDPNSGKFEPITADMGISMQKQIKAKKYLEVSAKTRQGLERVFSAAIEIVLESRGMDKKDQDGSSSASGVPSGDKPTKGKAGKKKSGCIIL
B3: human hnRNP U; sequence looked up; chain SSSPVNVKKLKVSELKEELKKRRLSDKGLKAELMERLQAALDDEEAGGRPAMEPGNGSLDLGGDSAGRSGAGLEQEAAAGGDEEEEEEEEEEEGISALDGDQMELGEENGAAGAADSGPMEEEEAASEDENGDDQGFQEGEDELGDEEEGAGDENGHGEQQPQPPATQQQQPQQQRGAAKEAAGKSSGPTSLFAVTVAPPGARQGQQQAGGKKKAEGGGGGGRPGAPAAGDGKTEQKGGDKKRGVKRPREDHGRGYFEYIEENKYSRAKSPQPPVEEEDEHFDDTVVCLDTYNCDLHFKISRDRLSASSLTMESFAFLWAGGRASYGVSKGKVCFEMKVTEKIPVRHLYTKDIDIHEVRIGWSLTTSGMLLGEEEFSYGYSLKGIKTCNCETEDYGEKFDENDVITCFANFESDEVELSYAKNGQDLGVAFKISKEVLAGRPLFPHVLCHNCAVEFNFGQKEKPYFPIPEEYTFIQNVPLEDRVRGPKGPEEKKDCEVVMMIGLPGAGKTTWVTKHAAENPGKYNILGTNTIMDKMMVAGFKKQMADTGKLNTLLQRAPQCLGKFIEIAARKKRNFILDQTNVSAAAQRRKMCLFAGFQRKAVVVCPKDEDYKQRTQKKAEVEGKDLPEHAVLKMKGNFTLPEVAECFDEITYVELQKEEAQKLLEQYKEESKKALPPEKKQNTGSKKSNKNKSGKNQFNRGGGHRGRGGFNMRGGNFRGGAPGNRGGYNRRGNMPQRGGGGGGSGGIGYPYPRAPVFPGRGSYSNRGNYNRGGMPNRGNYNQNFRGRGNNRGYKNQSQGYNQWQQGQFWGQKPWSQHYHQGYY
Chain of UniProt Q23985 (whole entry, looked up): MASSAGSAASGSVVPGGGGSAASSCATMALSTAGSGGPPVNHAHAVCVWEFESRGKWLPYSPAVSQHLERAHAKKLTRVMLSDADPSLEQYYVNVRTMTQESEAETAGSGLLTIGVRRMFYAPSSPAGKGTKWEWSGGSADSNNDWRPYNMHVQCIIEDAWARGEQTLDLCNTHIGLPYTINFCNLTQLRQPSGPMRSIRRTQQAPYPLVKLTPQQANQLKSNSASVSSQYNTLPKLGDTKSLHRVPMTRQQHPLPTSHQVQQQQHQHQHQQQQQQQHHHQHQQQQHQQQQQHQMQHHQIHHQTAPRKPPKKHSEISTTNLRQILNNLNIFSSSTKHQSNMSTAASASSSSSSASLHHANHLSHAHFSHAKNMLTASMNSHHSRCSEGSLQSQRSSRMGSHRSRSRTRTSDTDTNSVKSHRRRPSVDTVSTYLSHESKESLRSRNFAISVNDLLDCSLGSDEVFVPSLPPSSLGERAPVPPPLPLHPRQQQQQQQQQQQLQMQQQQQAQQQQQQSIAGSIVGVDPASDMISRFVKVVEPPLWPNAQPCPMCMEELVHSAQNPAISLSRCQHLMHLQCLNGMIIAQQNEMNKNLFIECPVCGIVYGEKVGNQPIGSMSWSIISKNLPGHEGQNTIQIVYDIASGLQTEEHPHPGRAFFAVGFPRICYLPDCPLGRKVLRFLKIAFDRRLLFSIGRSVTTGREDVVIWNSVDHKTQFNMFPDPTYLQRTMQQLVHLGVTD
Chain of UniProt P02930 (whole entry, unmodified, looked up): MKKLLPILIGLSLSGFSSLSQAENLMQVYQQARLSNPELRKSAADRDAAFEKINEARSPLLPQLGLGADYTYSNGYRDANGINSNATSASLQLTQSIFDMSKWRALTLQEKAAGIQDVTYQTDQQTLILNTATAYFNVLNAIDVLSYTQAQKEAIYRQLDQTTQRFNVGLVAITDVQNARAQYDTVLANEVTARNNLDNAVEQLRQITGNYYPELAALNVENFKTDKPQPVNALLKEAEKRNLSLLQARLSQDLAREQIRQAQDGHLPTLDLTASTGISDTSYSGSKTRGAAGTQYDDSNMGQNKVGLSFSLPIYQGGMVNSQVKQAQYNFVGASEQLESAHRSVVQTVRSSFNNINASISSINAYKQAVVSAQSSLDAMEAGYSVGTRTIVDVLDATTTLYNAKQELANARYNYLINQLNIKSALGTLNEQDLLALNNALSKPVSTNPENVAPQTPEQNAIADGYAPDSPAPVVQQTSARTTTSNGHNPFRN
Chain of UniProt P0A9A6 (whole entry, looked up): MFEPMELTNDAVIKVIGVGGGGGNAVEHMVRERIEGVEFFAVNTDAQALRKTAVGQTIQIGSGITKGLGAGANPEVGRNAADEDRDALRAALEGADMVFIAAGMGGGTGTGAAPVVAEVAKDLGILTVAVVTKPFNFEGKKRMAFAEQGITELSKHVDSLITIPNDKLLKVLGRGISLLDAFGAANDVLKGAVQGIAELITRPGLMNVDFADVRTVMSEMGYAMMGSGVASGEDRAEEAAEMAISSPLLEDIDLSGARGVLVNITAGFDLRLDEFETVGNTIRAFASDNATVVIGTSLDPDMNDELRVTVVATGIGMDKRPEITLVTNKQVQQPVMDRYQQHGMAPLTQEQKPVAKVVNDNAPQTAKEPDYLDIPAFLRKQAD
Chain of UniProt P08588 (whole entry, looked up): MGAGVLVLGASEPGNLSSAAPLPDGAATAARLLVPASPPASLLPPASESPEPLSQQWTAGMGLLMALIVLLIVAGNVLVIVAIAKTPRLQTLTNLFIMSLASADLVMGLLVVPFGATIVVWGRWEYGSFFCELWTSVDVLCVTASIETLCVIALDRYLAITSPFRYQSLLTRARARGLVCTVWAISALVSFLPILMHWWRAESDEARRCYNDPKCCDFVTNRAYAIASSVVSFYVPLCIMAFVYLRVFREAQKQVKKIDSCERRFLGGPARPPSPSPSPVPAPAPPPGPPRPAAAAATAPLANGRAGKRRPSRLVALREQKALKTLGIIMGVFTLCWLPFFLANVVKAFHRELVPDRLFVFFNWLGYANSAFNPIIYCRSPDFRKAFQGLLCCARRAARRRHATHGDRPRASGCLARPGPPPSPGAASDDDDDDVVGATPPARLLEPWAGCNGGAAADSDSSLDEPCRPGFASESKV

Molecule	tested on	test	system	conditions	scale	measurement	value
AR (Homo sapiens, UniProt P10275)	itself	AUC				Kd	> 14 µM
ADRB1 (Homo sapiens, UniProt P08588)	itself	BRET		added: HA-β1AR competitor, 0.5 µg	higher = weaker self-association	BRET50	1.9 GFP/Rluc ratio
dx (Drosophila melanogaster, UniProt Q23985)	itself	AUC				Kd	1010 µM
PIP5K1B C110S/P163C/C411S, Alexa555 or Alexa647 label (Homo sapiens)	itself	smFRET		homodimer, added: PI(4,5)P2		dwell time	0.14 ± 0.03 s
CDH3 ectodomain, soluble (Xenopus)	itself	AUC		monomer-dimer fit, sedimentation equilibrium		Kd	64 µM
UCAUUUAUU (ssRNA)	U2AF2	sequencing of bound RNA	RNA	motif only		Kd	3.59 µM
Notch ankyrin domain (Drosophila)	itself	AUC				Kd	1620 µM
MXAN_1565 GAF domain (Myxococcus xanthus)	itself	cross-linking				subunits per oligomer	2
B1 (S100A1)	itself	AUC				Kd	30 ± 6 µM
clcA C85A/H234C/L194A (Escherichia coli)	itself	SEC		12 days, 4 °C		dimer decay half-life	1.1 days
ftsZ (Escherichia coli, UniProt P0A9A6)	itself	filament formation		approximate		critical concentration	1 µM
CCUUUUUCU (ssRNA)	U2AF2	sequencing of bound RNA	RNA	motif only		Kd	1.02 µM
cyanophycin synthetase 2	itself	cyanophycin synthesis			baseline: wild type, higher = more active	normalized synthesis activity	1.03
B2 (racE T25N/S192D/E173R)	itself	pull-down				binding	binds
TolC mature monomer (Escherichia coli, UniProt P02930)	itself	SDS-PAGE band densitometry				Kd	29.7 µM
human EEF1G	CYB5R4 knockout human cells	PP4 interaction, 3xFLAG-PP4C IP-MS		concentration not given	baseline: CYB5R4 KO over parental	log2 fold change	0.23
CAMK2D F368A (Homo sapiens)	itself	mass photometry		100 nM	higher = more dimers	dimers	10%
FLS2 monomeric (Arabidopsis thaliana, UniProt Q9FL28)	itself	VA-TIRFM, single-particle tracking		resting state, in cells		association dwell time	8 s
B3 (human hnRNP U)	PP6C (human)	co-immunoprecipitation, IP-MS	CYB5R4 knockout cells	concentration not given	baseline: CYB5R4 knockout over parental	log2 fold change	-1.01
EGFR fragment, 15N/13C-labeled (Homo sapiens)	itself	NMR, 1H/15N-HSQC	bicelles	40 °C		dimer:monomer ratio	2 dimer:monomer
TCR Vα Vα domain (Mus musculus)	itself	NMR relaxation				Kd	1000 ± 500 µM
popZ del102-109 (Caulobacter crescentus)	itself	AUC		25 °C		subunits per oligomer	6

Repeated from above:
Molecule	tested on	test	system	conditions	scale	measurement	value
EGFR fragment, 15N/13C-labeled (Homo sapiens)	itself	NMR, 1H/15N-HSQC	bicelles	40 °C		dimer:monomer ratio	2 dimer:monomer
TCR Vα Vα domain (Mus musculus)	itself	NMR relaxation				Kd	1000 ± 500 µM
